Measurements of several laboratories.
Every numbered part comes from another study and shows a few of its results, in no order.
Sequence of UniProt O94806 (whole entry, looked up): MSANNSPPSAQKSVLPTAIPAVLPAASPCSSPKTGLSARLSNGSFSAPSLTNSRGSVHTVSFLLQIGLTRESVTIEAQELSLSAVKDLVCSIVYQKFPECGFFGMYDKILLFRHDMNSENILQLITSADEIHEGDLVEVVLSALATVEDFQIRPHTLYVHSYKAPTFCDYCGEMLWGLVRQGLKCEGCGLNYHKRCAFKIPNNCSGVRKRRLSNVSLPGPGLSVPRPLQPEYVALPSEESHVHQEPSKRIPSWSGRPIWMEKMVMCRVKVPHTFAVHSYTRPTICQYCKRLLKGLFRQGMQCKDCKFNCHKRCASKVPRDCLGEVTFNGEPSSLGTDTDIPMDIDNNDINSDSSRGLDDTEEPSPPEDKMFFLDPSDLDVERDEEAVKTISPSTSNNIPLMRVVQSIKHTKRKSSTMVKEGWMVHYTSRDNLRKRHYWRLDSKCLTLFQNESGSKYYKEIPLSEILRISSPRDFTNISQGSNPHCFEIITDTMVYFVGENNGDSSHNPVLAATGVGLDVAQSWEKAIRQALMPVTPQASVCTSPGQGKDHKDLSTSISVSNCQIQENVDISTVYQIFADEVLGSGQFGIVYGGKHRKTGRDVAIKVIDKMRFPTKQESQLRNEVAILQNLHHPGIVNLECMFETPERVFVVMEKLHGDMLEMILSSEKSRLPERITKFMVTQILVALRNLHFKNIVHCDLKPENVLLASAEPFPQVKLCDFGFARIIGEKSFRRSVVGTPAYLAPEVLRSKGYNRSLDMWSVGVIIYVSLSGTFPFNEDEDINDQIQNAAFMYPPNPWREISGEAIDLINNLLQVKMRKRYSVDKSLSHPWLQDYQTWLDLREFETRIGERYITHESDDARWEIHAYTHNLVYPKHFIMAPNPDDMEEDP
Sequence of UniProt Q00532 (whole entry, looked up): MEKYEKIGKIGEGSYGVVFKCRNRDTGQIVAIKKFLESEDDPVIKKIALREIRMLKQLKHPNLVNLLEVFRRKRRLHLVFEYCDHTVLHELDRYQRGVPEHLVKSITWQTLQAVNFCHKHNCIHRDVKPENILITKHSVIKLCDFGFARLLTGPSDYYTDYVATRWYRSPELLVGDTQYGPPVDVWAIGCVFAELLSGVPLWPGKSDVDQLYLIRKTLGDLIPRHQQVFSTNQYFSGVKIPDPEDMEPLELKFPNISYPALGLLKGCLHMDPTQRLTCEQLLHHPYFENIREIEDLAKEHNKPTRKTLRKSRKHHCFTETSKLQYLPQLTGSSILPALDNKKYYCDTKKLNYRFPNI
Sequence of UniProt Q02750 (whole entry, looked up): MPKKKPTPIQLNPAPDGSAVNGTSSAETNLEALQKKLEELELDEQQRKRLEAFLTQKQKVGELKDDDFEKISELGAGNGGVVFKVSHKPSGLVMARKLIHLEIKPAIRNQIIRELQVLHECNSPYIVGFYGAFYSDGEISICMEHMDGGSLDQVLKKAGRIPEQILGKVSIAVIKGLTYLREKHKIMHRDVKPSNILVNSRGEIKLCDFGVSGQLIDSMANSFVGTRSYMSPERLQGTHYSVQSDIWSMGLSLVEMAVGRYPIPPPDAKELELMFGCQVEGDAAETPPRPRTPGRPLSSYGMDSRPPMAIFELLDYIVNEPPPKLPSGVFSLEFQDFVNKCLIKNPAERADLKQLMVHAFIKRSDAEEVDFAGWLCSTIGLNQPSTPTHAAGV
Sequence of UniProt Q9UK32 (whole entry, looked up): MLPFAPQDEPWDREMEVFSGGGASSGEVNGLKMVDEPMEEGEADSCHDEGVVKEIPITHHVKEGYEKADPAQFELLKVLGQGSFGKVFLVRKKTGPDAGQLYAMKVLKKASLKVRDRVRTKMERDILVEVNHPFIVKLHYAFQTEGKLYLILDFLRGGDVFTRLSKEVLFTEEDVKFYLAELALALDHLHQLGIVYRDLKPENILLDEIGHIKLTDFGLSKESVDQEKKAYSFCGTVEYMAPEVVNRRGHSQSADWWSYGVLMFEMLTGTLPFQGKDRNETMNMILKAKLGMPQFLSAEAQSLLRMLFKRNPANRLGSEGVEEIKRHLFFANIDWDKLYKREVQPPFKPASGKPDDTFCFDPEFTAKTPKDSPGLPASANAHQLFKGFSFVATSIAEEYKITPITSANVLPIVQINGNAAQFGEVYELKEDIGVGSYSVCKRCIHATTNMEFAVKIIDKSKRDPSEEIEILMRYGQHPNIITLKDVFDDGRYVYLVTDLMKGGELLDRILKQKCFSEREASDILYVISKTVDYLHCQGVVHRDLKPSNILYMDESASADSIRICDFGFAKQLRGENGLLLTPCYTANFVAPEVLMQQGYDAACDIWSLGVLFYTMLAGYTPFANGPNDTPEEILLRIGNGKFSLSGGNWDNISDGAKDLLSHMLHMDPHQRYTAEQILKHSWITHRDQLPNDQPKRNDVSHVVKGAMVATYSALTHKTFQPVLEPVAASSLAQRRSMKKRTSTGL
Sequence of UniProt Q15375 (whole entry, looked up): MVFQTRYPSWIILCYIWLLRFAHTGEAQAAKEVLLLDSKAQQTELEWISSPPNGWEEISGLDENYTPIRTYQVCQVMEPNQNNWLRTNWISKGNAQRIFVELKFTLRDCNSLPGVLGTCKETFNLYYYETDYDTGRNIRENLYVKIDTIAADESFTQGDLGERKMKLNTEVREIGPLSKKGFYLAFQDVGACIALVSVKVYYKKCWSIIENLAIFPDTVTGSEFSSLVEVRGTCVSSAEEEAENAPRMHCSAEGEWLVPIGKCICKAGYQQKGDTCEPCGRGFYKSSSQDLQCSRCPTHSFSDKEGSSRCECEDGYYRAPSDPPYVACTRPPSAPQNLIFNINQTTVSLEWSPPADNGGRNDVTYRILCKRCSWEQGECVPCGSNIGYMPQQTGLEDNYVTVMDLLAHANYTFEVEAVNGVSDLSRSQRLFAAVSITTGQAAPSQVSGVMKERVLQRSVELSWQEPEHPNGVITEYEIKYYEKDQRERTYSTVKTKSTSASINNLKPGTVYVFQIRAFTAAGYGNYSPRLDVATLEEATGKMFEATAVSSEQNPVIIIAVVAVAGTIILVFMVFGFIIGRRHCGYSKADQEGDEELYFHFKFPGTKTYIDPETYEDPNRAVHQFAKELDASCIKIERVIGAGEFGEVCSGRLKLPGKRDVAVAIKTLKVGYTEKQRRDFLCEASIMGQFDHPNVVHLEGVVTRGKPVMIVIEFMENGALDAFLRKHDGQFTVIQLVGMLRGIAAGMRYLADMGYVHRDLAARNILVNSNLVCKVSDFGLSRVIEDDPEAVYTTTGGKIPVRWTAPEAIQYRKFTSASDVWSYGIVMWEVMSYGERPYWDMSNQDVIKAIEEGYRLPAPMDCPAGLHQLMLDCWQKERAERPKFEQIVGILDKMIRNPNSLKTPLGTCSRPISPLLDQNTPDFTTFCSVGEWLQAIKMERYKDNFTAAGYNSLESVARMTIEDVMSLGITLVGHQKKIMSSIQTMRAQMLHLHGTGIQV
Sequence of UniProt Q15831 (whole entry, looked up): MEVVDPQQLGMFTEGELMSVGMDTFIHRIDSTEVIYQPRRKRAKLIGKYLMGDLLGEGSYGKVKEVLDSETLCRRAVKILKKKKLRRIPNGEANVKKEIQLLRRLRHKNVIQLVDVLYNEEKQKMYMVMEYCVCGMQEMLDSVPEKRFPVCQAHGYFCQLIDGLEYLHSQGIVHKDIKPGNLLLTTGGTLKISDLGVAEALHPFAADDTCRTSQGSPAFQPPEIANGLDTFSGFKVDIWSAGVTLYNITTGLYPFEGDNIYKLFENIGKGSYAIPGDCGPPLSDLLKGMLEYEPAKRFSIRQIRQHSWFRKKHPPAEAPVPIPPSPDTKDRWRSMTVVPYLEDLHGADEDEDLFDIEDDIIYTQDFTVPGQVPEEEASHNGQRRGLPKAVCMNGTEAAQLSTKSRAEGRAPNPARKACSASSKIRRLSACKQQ
Sequence of UniProt P51956 (whole entry, looked up): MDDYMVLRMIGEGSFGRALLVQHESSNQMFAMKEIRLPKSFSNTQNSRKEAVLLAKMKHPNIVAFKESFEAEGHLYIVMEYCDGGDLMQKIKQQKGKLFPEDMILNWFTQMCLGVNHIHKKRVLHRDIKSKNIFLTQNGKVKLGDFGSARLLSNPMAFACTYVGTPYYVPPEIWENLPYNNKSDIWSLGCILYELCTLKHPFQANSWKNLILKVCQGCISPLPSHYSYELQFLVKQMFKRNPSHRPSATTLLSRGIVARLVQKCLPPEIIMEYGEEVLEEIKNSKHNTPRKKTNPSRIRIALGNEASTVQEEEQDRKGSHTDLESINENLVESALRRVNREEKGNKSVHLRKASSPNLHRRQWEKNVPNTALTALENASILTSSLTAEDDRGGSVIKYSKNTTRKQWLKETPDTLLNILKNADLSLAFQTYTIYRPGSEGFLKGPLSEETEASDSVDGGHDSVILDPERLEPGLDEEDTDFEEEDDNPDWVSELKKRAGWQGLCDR

Set 1 — cell line: A-375; tested at: 100 µM; time: 18 h
With `CC(=O)c1ccc(S(=O)(=O)NC(=O)NC2CCCCC2)cc1` the viability was 69.4%.
For `OC(CCCN1CCCCC1)(c1ccccc1)c1ccccc1`, the viability was 86%.
`CCN(CC)CCOC(=O)C(c1ccccc1)c1ccccc1` has a viability of 56.3%.
`C=C1CCN([C@H](C)[C@](O)(Cn2cncn2)c2ccc(F)cc2F)CC1` gave a viability of 14.6%.
`COC1=C(OC)C(=O)C(C/C=C(\C)CC/C=C(\C)CC/C=C(\C)CC/C=C(\C)CC/C=C(\C)CC/C=C(\C)CC/C=C(\C)CC/C=C(\C)CC/C=C(\C)CCC=C(C)C)=C(C)C1=O` gave a viability of 104%.
For `CC(=O)OCC[N+](C)(C)C`, the viability was 93.2%.
The viability of `CC1CCc2c(N3CCC(O)CC3)c(F)cc3c(=O)c(C(=O)O)cn1c23` (centres unmarked) is reported as 92.5%.
The viability of `O=c1ccc2ccccc2o1` is reported as 91.7%.
`CCCC(C(=O)OCCN(CC)CC)(c1ccccc1)c1ccccc1` gave a viability of 9.14%.
For `C[C@]12CCC3=C4CCC(=O)C=C4CC[C@H]3[C@@H]1CC[C@@]2(O)CC#N`, the viability was 95.9%.

Set 2 — observed: enzyme activity; action: inhibitor; tested at: 0.5 µM; relative to: control
Target: Serine/threonine-protein kinase 26 (STK26, Homo sapiens, UniProt Q9P289)
Sequence of UniProt Q9P289 (whole entry, looked up): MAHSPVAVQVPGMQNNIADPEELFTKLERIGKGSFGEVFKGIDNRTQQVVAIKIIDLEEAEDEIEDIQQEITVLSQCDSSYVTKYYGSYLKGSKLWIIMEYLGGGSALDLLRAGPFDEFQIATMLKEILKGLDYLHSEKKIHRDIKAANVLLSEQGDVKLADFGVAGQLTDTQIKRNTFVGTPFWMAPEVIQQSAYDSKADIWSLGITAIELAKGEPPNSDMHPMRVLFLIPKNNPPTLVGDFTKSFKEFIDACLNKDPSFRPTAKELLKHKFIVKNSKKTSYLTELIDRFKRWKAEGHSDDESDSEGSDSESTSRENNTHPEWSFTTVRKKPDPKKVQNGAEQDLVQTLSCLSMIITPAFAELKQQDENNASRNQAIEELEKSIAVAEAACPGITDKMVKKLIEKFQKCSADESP
`COc1cc2ncnc(Nc3ccc(F)c(Cl)c3)c2cc1OCCCN1CCOCC1` has a remaining activity of 106%.
For `O=C(Nc1cccc(Nc2cc(Nc3cccc(C(F)(F)F)c3)ncn2)c1)C1CC1`, the remaining activity was 98.9%.
With `Cc1nc(-c2ccccc2)c(-c2ccncc2)o1` the remaining activity was 114%.
`Nc1ccc2ncnc(NCCc3ccc(Oc4ccccc4)cc3)c2c1` has a remaining activity of 94.4%.
With `Cc1ccc(Nc2nccc(N(C)c3ccc4c(C)n(C)nc4c3)n2)cc1S(N)(=O)=O` the remaining activity was 108%.
`CNC(=O)c1cc(Oc2ccc(NC(=O)Nc3ccc(Cl)c(C(F)(F)F)c3)cc2)ccn1` gave a remaining activity of 101%.
`OCC(O)CCON=C1C(c2c(O)[nH]c3ccccc23)=Nc2ccccc21` (centres unmarked) gave a remaining activity of 73.1%.
`Cn1c2ccccc2c2c3c(c4c5ccccc5n(CCC#N)c4c21)CNC3=O` has a remaining activity of 89.8%.
With `O=C(CCCc1ccc(-c2ccccc2F)cc1)Nc1ccc(O)cc1` the remaining activity was 91.5%.
With `O=c1c2ccccc2[nH]c(=S)n1CCN1CCC(=C(c2ccc(F)cc2)c2ccc(F)cc2)CC1` the remaining activity was 91.6%.
With `CC(C)[C@H](CO)Nc1nc(Nc2cc(N)cc(Cl)c2)c2ncn(C(C)C)c2n1` the remaining activity was 67.8%.
The remaining activity of `Nc1[nH]nc2nc3ccccc3nc12` is reported as 91.2%.
The remaining activity of `COc1ccc(OC)c2c(=S)c3ccccc3[nH]c12` is reported as 90.8%.
`O=C(O)c1ccc2c3c1cccc3c(=O)n1c3ccccc3nc21` gave a remaining activity of 97.8%.
The remaining activity of `COc1ccc(CNC(=O)Nc2ncc([N+](=O)[O-])s2)cc1` is reported as 113%.
`CCOC(=O)c1c(C)[nH]c(/C=C2\C(=O)Nc3ccccc32)c1C` has a remaining activity of 101%.
The remaining activity of `CO[C@H]1C[C@@H]2CC[C@@H](C)[C@@](O)(O2)C(=O)C(=O)N2CCCC[C@H]2C(=O)O[C@H]([C@H](C)C[C@@H]2CC[C@@H](O)[C@H](OC)C2)CC(=O)[C@H](C)/C=C(\C)[C@@H](O)[C@@H](OC)C(=O)[C@H](C)C[C@H](C)/C=C/C=C/C=C/1C` is reported as 113%.
For `Cc1ccc(NC(=O)c2ccc(CN3CCN(C)CC3)cc2)cc1Nc1nc(-c2cccnc2)cs1`, the remaining activity was 97%.
`C#Cc1cccc(Nc2ncnc3cc(OCCOC)c(OCCOC)cc23)c1` has a remaining activity of 106%.
The remaining activity of `O=C1NC(=O)C(c2cn(CCCn3ccnc3)c3ccccc23)=C1Nc1ccccc1` is reported as 22.2%.

Set 3 — organism: Sarcocystis neurona; observed: parasite growth; tested at: 10 µM
`CC(=O)O[C@]1(C(C)=O)CC[C@H]2[C@@H]3C[C@H](C)C4=CC(=O)CC[C@]4(C)[C@H]3CC[C@@]21C` has an inhibition of -26.3%.
`COC(=O)C1=C(C)NC(C)=C(C(=O)OC(C)C)C1c1cccc2nonc12` (centres unmarked) gave an inhibition of -42.2%.
The inhibition of `COc1ccccc1OCCNCC(O)COc1cccc2[nH]c3ccccc3c12` (centres unmarked) is reported as 32.2%.
With `C[C@]12C=CC(=O)C=C1CC[C@@H]1[C@@H]2[C@@H](O)C[C@@]2(C)[C@H]1CC[C@]2(O)C(=O)CO` the inhibition was -23.5%.
With `c1ccc(-c2ccc(C(c3ccccc3)n3ccnc3)cc2)cc1` (centres unmarked) the inhibition was 52.1%.
The inhibition of `CC(=O)NC[C@H]1CN(c2ccc(N3CCOCC3)c(F)c2)C(=O)O1` is reported as 3.2%.
For `COc1ccc2[n-]c([S+]([O-])Cc3ncc(C)c(OC)c3C)nc2c1.COc1ccc2[n-]c([S+]([O-])Cc3ncc(C)c(OC)c3C)nc2c1.[Mg+2]` (centres unmarked), the inhibition was 27.6%.
With `CC(C)NCC(O)COc1cccc2[nH]ccc12` (centres unmarked) the inhibition was -31.5%.
`O=C(O)C[C@H](O)C[C@H](O)/C=C/c1c(C2CC2)nc2ccccc2c1-c1ccc(F)cc1` has an inhibition of 5.9%.
`Cc1onc(-c2ccccc2)c1C(=O)N[C@@H]1C(=O)N2[C@@H]1SC(C)(C)[C@@H]2C(=O)O` has an inhibition of -22.9%.
`CC[C@@]1(O)C(=O)OCc2c1cc1n(c2=O)Cc2cc3c(CN(C)C)c(O)ccc3nc2-1` has an inhibition of -25.3%.

Set 4 — method: competition with immobilised ligand; tested at: 1 µM
Compound: CC1=C(C#N)[C@@H](c2ccc3[nH]nc(C)c3c2)C(C#N)=C(c2ccc(Cl)cc2)N1
For MAP3K1 (Homo sapiens, UniProt Q13233); cell-free assay: remaining binding read 100%.
It gave 100% for remaining binding (MAP2K1 (Homo sapiens, UniProt Q02750); cell-free assay).
CDKL1 (Homo sapiens, UniProt Q00532); binding — remaining binding: 77.1%.
It gave 77.4% for remaining binding (Ribosomal protein S6 kinase alpha-6, C-terminal kinase domain (RPS6KA6, Homo sapiens, UniProt Q9UK32); cell-free assay).
It gave 100% for remaining binding (EPHA8 (Homo sapiens, UniProt P29322); cell-free assay).
For NEK3 (Homo sapiens, UniProt P51956); cell-free assay: remaining binding read 100%.
It gave 81.4% for remaining binding (Ribosomal protein S6 kinase alpha-4, N-terminal kinase domain (RPS6KA4, Homo sapiens, UniProt O75676); cell-free assay).
STK11 (Homo sapiens, UniProt Q15831); cell-free assay — remaining binding: 100%.
DYRK1B (Homo sapiens, UniProt Q9Y463); cell-free assay — remaining binding: 50.1%.
It gave 100% for remaining binding (PRKD3 (Homo sapiens, UniProt O94806); cell-free assay).
EGFR (Homo sapiens, UniProt P00533, del747-750/T751S); cell-free assay — remaining binding: 100%.
EPHA7 (Homo sapiens, UniProt Q15375); cell-free assay — remaining binding: 91.2%.

A few entries again (set 4):
DYRK1B (Homo sapiens, UniProt Q9Y463); cell-free assay — remaining binding: 50.1%.
It gave 100% for remaining binding (PRKD3 (Homo sapiens, UniProt O94806); cell-free assay).
EGFR (Homo sapiens, UniProt P00533, del747-750/T751S); cell-free assay — remaining binding: 100%.
